Measured values from different studies.
Lines come from different studies, so protocols differ. ± marks the error that the study gave. ≈ marks a conversion by molar mass, not a printed value.

Compound = CC[C@H](C)[C@H](NC(=O)[C@H](CCCCN)NC(=O)[C@H](CCCCN)NC(=O)[C@H](CC(C)C)NC(=O)[C@H](Cc1c[nH]c2ccccc12)NC(=O)CN)C(=O)NCC(=O)N[C@@H](CCCCN)C(=O)N[C@@H](CCCCN)C(=O)N[C@H](C(=O)N[C@@H](CCC(=O)O)C(=O)N[C@@H](CCCNC(=N)N)C(=O)N[C@H](C(=O)NCC(=O)N[C@@H](CCC(N)=O)C(=O)N[C@@H](Cc1c[nH]cn1)C(=O)N[C@H](C(=O)N[C@@H](CCCNC(=N)N)C(=O)N[C@@H](CC(=O)O)C(=O)N[C@@H](C)C(=O)N[C@H](C(=O)N[C@H](C(=O)N[C@@H](CCC(N)=O)C(=O)N[C@H](C(=O)N[C@H](C(=O)NCC(=O)N[C@H](C(=O)N[C@@H](C)C(=O)N[C@@H](CCC(N)=O)C(=O)N[C@@H](CCC(N)=O)C(=O)N[C@@H](C)C(=O)N[C@@H](C)C(=O)N[C@@H](CC(N)=O)C(=O)N[C@H](C(=O)N[C@@H](C)C(=O)N[C@@H](C)C(=O)N[C@H](C(=O)N[C@@H](CC(C)C)C(=O)N[C@@H](CCCCN)C(N)=O)[C@@H](C)O)C(C)C)C(C)C)[C@@H](C)CC)[C@@H](C)O)[C@@H](C)CC)[C@@H](C)O)[C@@H](C)O)C(C)C)[C@@H](C)CC; tested on = Pseudomonas aeruginosa; system = isolate RKI 93/12, CAMHB; measurement = MIC; value = 128 µg/mL (≈ 30.5 µM)
Compound = Cc1ccc(N2CC(N3CCC(C)(O)CC3)C2)cc1C(=O)NC1(c2ccc3c4c(cccc24)C(=O)N3C)CC1; tested on = SARS-CoV-2; assay = viral replication; system = Vero C1008, XBB.1; setting = 0.05144 µM; measurement = inhibition; value = 55%
Compound = Cc1oc2nc1C(=O)N[C@](C)(C(=O)O)c1nc(c(C)o1)C(=O)N[C@](C)(C(=O)O)c1nc(c(C)o1)C(=O)N[C@]2(C)C(=O)O; tested on = SARS-CoV-2; assay = virucidal activity; system = Vero E6, NRC-03-nhCoV; setting = 20 µM; measurement = inhibition; value = 60%
Compound = CC(C)c1ccc2c(c1)CC[C@H]1[C@](C)(C(=O)OCC#CCN3CCCC3)CCC[C@]21C; tested on = SARS-CoV-2 pseudovirus; assay = pseudovirus infection; system = BHK-21-hACE2; setting = 20.0 µM; measurement = inhibition; value = > 60%
Compound = COC(=O)c1cc2c(=O)n3ccccc3nc2n1Cc1ccccc1; tested on = Severe acute respiratory syndrome coronavirus 2; assay = viral replication; system = Vero; setting = 1 nM; measurement = inhibition; value = 11.8%
Compound = O=S(=O)(O)c1c2ccccc2c(-c2c3nc(c(-c4c5ccccc5c(S(=O)(=O)O)c5ccccc45)c4ccc([nH]4)c(-c4c5ccccc5c(S(=O)(=O)O)c5ccccc45)c4nc(c(-c5c6ccccc6c(S(=O)(=O)O)c6ccccc56)c5ccc2[nH]5)C=C4)C=C3)c2ccccc12; tested on = vaccinia virus; assay = viral replication; system = CV-1, WR; setting = 25 µg/mL, 16 h; measurement = inhibition; value = 81%
Compound = Cc1cc(/C=C/C#N)cc(C)c1Nc1nc(Nc2ccc(C#N)cc2)ncc1N; tested on = HIV-1; assay = viral replication, single-round infection; system = RT mutant V106A/L234I; measurement = EC50; value = 0.3 ± 0.1 nM
Compound = CC(C)CC(C(=O)N1CC2(CC1C#N)C(=O)Nc1ccccc12)N(C)C(=O)c1cc2c(F)cc(F)c(F)c2[nH]1 (stereo not shown); tested on = pangolin coronavirus; assay = viral replication; setting = 0.0004572 µM; measurement = inhibition; value = 0%
Compound = Cc1ccc(N2CC(N3CCC(C)(O)CC3)C2)cc1C(=O)NC1(c2ccc3c4c(cccc24)CC3)CC1; tested on = SARS-CoV-2; assay = viral replication; system = Vero C1008, XBB.1; setting = 0.01715 µM; measurement = inhibition; value = 0%
Compound = CCCCCCCCCCCCCCCC(=O)N[C@@H](CCC(=O)NCCOCCOCCC(=O)NCCOCCOCCC(=O)NCCCC[C@H](NC(=O)[C@H](CC(=O)O)NC(=O)[C@H](CC(C)C)NC(=O)[C@H](Cc1ccc(O)cc1)NC(=O)[C@H](CCCCN)NC(=O)[C@H](CO)NC(=O)[C@H](Cc1ccc(O)cc1)NC(=O)[C@H](CC(=O)O)NC(=O)[C@H](CO)NC(=O)[C@@H](NC(=O)[C@H](Cc1ccccc1)NC(=O)[C@@H](NC(=O)CNC(=O)[C@H](CCC(N)=O)NC(=O)[C@@H](CO)NC(=O)[C@@H](N)Cc1c[nH]cn1)[C@@H](C)O)[C@@H](C)O)C(=O)N[C@@H](CCCNC(=N)N)C(=O)N[C@@H](CCCNC(=N)N)C(=O)N[C@@H](C)C(=O)N[C@@H](CCC(N)=O)C(=O)N[C@@H](CC(=O)O)C(=O)N[C@@H](Cc1ccccc1)C(=O)N[C@H](C(=O)N[C@@H](CCC(N)=O)C(=O)N[C@@H](Cc1c[nH]c2ccccc12)C(=O)N[C@@H](CC(C)C)C(=O)N[C@@H](CC(C)C)C(=O)N[C@@H](CC(N)=O)C(=O)N[C@H](C(=O)NCC(=O)NCC(=O)N1CCC[C@H]1C(=O)N[C@@H](CO)C(=O)N[C@@H](CO)C(=O)NCC(=O)N[C@@H](C)C(=O)N1CCC[C@H]1C(=O)N1CCC[C@H]1C(=O)N1CCC[C@H]1C(=O)N[C@@H](CO)C(N)=O)[C@@H](C)O)C(C)C)C(=O)O; system = Sprague-Dawley rat, male; setting = subcutaneous, 500 µg/kg once daily, 14 days; measurement = total cholesterol; value = 0.45 ± 0.1 mmol/L
Compound = Cc1cc(/C=C/C#N)cc(C)c1-n1cnc2cnc(Nc3ccc(C#N)cc3)nc21; tested on = HIV-1; assay = viral replication, single-round infection; system = RT mutant K103N/P225H; measurement = EC50; value = 2.1 ± 0.9 nM
Compound = O=C(C=Cc1ccc(O)c(O)c1)OC1CC(O)(C(=O)O)CC(OC(=O)C=Cc2ccc(O)c(O)c2)C1O (stereo not shown); tested on = Severe acute respiratory syndrome coronavirus 2; assay = cytopathic effect; system = Vero C1008; setting = 50 µM; measurement = inhibition; value = 0%
Compound = Cc1ccc(N2CC3CC(C2)N3)cc1C(=O)NC1(c2ccc3c4c(cccc24)C(=O)N3C)CC1; tested on = SARS-CoV-2; assay = viral replication; system = Vero C1008, XBB.1; setting = 0.1543 µM; measurement = inhibition; value = 95%

Some of these lines once more:
Compound = Cc1cc(/C=C/C#N)cc(C)c1-n1cnc2cnc(Nc3ccc(C#N)cc3)nc21; tested on = HIV-1; assay = viral replication, single-round infection; system = RT mutant K103N/P225H; measurement = EC50; value = 2.1 ± 0.9 nM
Compound = O=C(C=Cc1ccc(O)c(O)c1)OC1CC(O)(C(=O)O)CC(OC(=O)C=Cc2ccc(O)c(O)c2)C1O (stereo not shown); tested on = Severe acute respiratory syndrome coronavirus 2; assay = cytopathic effect; system = Vero C1008; setting = 50 µM; measurement = inhibition; value = 0%
